Results pooled from the literature.
Compare with care: the assays were run in different laboratories. ± marks the error that the study gave.

SMILES | target | assay | system | setting | how to read | quantity | value
C=CCn1cnc2c(NCc3ccc(C)s3)nc(N[C@H](CC)CO)nc21 | Cav2.1 calcium channel | tail current integral, whole-cell patch clamp | HEK293 transfected with Cav2.1 | – | – | EC50 | 7.04 µM
COc1ccc2ccc3c(c2c1)C=[N+]1C2CCCCC2[N+]2=Cc4cccc(OC)c4[O][Au-]21[O]3.F[P-](F)(F)(F)(F)F (stereo not drawn) | Klebsiella pneumoniae glutathione reductase | cellular enzyme activity, inhibitor | Klebsiella pneumoniae, carbapenem-resistant | 4 h | – | IC50 | 6.4 µM
CC[C@H](C)[C@@H]1NC(=O)[C@H](Cc2ccc(O)cc2)NC(=O)[C@@H](N)CSSC[C@@H](C(=O)N2CCC[C@H]2C(=O)N2CCC[C@H]2C(=O)NCC(N)=O)NC(=O)[C@H](CC(N)=O)NC(=O)[C@H](CCC(N)=O)NC1=O | oxytocin receptor (titi monkey) | Ca2+ mobilisation, agonist | CHO cells | – | – | Emax | 2780 RFU
Nc1ccn(C2CCC(OC(C(=O)O)P(=O)(O)O)C2)c(=O)n1 (racemic) | HIV-1 reverse transcriptase M184V/E138K | enzyme activity, inhibitor | – | with: poly(I)·dC, [3H]dCTP | baseline: mutant over wild type | fold resistance | 5 fold
NC[C@@H]1O[C@H](O[C@H]2[C@@H](O)[C@H](O[C@@H]3[C@@H](O)[C@H](N)C[C@H](N)[C@H]3O[C@H]3O[C@H](CO)[C@@H](OCCO)[C@H](O)[C@H]3N)O[C@@H]2CO)[C@H](N)[C@@H](O)[C@@H]1O | Mycobacterium smegmatis ribosome wild type | translation, cell-free luciferase synthesis | – | – | – | IC50 | 50 ± 20 ng/mL
CC(C)C[C@@H]1NC(=O)[C@H](Cc2c[nH]c3ccccc23)NC(=O)[C@H](CCCNC(=N)N)NC(=O)[C@H](CCCCN)NC(=O)[C@@H]2CCCN2C(=O)[C@H](Cc2ccc(O)cc2)NC(=O)[C@H](CCCNC(=N)N)NC(=O)[C@H](CC(C)C)NC(=O)[C@H](Cc2ccc(O)cc2)NC(=O)[C@H](CCCNC(=N)N)NC1=O | delta-opioid receptor | DADLE-mediated adenylyl cyclase inhibition | NG108-15 membranes | concentration not given, with: forskolin plus DADLE | – | inhibition of adenylyl cyclase | no effect
CCCCCCCC(=O)N[C@@H](CCCCNS(=O)(=O)c1cccc2c(N(C)C)cccc12)C(=O)N[C@H](C(=O)N[C@@H](CCN)C(=O)N[C@H]1CCNC(=O)[C@H]([C@@H](C)O)NC(=O)[C@H](CCN)NC(=O)[C@H](CCN)NC(=O)[C@H](CC(C)C)NC(=O)[C@@H](Cc2ccccc2)NC(=O)[C@H](CCN)NC1=O)[C@@H](C)O | LPS, Escherichia coli | ITC | – | pH 7.0, 37 °C | – | stoichiometry, first site | 2 ± 0.3
COC[C@@H](NC(C)=O)C(=O)NCc1ccc(OCc2ccccc2)cc1 | voltage-gated sodium channel | whole-cell patch clamp | rat embryonic cortical neurons | 10 µM, at -50 mV | – | fraction of inactivated channels | 0.63 ± 0.13
CCCO[C@H]1[C@H](O)[C@@H](N)[C@@H](O[C@H]2[C@H](O[C@@H]3O[C@H](CO)[C@@H](O[C@H]4O[C@@H](CN)[C@@H](O)[C@H](O)[C@H]4N)[C@H]3O)[C@@H](O)[C@H](N)C[C@@H]2N)O[C@@H]1CO | ribosome with human cytosolic A site | luciferase translation, cell-free translation | – | – | – | IC50 | 166000 ± 28300 ng/mL
C[C@H](NC(=O)[C@@H]1CCCN1C(=O)[C@H](Cc1ccc(O)cc1)NC(=O)CNC(=O)[C@H](CO)NC(=O)[C@H](Cc1ccccc1)NC(=O)[C@@H](N)[C@@H](C)O)C(=O)N[C@@H](Cc1ccccc1)C(=O)O | mu opioid receptor, rat | ion current, agonist, whole-cell patch clamp | Sprague Dawley rat, supraoptic nucleus neurons, brain slice | 100 nM, before CTOP, maximal response | – | outward current | 42.2 ± 7.2 pA
C(#C[P+](c1ccccc1)(c1ccccc1)c1ccccc1)c1ccccc1 | HSP70 human | pull-down | H1299 | 1 h pretreatment, 8-fold excess, with: 20 µM B-PES 5 h | – | HSP70 bound to B-PES | decreased
NC[C@@H]1O[C@H](O[C@H]2[C@@H](O)[C@H](O[C@@H]3[C@@H](O)[C@H](N)C[C@H](N)[C@H]3O[C@H]3O[C@@H]4COCO[C@H]4[C@H](O)[C@H]3N)O[C@@H]2CO)[C@H](N)[C@@H](O)[C@@H]1O | ribosome with human cytosolic A site | luciferase translation, cell-free translation | – | – | – | IC50 | 241000 ± 69800 ng/mL
COC[C@@H](NC(C)=O)C(=O)NCc1ccc(OCc2cccc(OC(F)(F)F)c2)cc1 | voltage-gated sodium channel | whole-cell patch clamp | rat embryonic cortical neurons | 10 µM, at -50 mV | – | fraction of inactivated channels | 0.92 ± 0.09
CCO[C@H]1[C@H](O)[C@@H](N)[C@@H](O[C@H]2[C@H](O[C@@H]3O[C@H](CO)[C@@H](O[C@H]4O[C@@H](CN)[C@@H](O)[C@H](O)[C@H]4N)[C@H]3O)[C@@H](O)[C@H](N)C[C@@H]2N)O[C@@H]1CO | ribosome with human cytosolic A site | luciferase translation, cell-free translation | – | – | – | IC50 | 94600 ± 31000 ng/mL
CC(C)[C@H](NC(=O)CNC(=O)CNC(=O)[C@H](CCCNC(=N)N)NC(=O)[C@H](CS)NC(=O)[C@H](CCCNC(=N)N)NC(=O)[C@H](Cc1c[nH]cn1)NC(=O)CN)C(=O)N[C@@H](CS)C(=O)N[C@@H](Cc1ccc(O)cc1)C(=O)N[C@@H](CCCCN)C(=O)N[C@@H](CCCCN)C(=O)N[C@@H](CCCCN)C(=O)NCC(=O)NCC(=O)NCC(=O)N[C@@H](CO)C(=O)N[C@@H](CCCCNC(=O)CCCC[C@@H]1SC[C@@H]2NC(=O)N[C@@H]21)C(=O)O | tobacco mosaic virus coat protein | Western blot | Tobacco mosaic virus | – | – | coat protein binding | no binding
CC1OCC2OC(OC3C(N)CC(N)C(O)C3OC3OC(CO)C(OC4OC(CN)C(O)C(O)C4N)C3O)C(N)C(O)C2O1 (stereo not drawn) | Mycobacterium smegmatis ribosome wild type | translation, cell-free luciferase synthesis | – | – | – | IC50 | 120 ± 80 ng/mL
C[C@]12CC[C@H](O)CC1CCC1C2[C@H](O)C(=O)[C@]2(C)[C@@H](c3ccc(=O)oc3)CC[C@]12O (stereo partly drawn) | mixed recombinant human SULTs | sulfation, substrate | – | – | – | Vmax | 0.63 ± 0.025 nmol/min/mg
NC[C@@H]1O[C@H](O[C@H]2[C@@H](O)[C@H](O[C@@H]3[C@@H](O)[C@H](N)C[C@H](N)[C@H]3O[C@H]3O[C@H](CO)[C@@H](OCC(O)CO)[C@H](O)[C@H]3N)O[C@@H]2CO)[C@H](N)[C@@H](O)[C@@H]1O (stereo partly drawn) | Mycobacterium smegmatis ribosome wild type | translation, cell-free luciferase synthesis | – | – | – | IC50 | 30 ± 10 ng/mL
CCCCCCCCC(=O)NCc1ccc(O)c(OC)c1 | mAb 2-LD2 | antibody binding, indirect competitive ELISA | – | with: coating antigen hapten 4-OVA | – | IC50 | 0.03 ng/mL
NC[C@@H]1O[C@H](O[C@H]2[C@@H](O)[C@H](O[C@@H]3[C@@H](O)[C@H](N)C[C@H](N)[C@H]3O[C@H]3O[C@H](CO)[C@@H](OCCCO)[C@H](O)[C@H]3N)O[C@@H]2CO)[C@H](N)[C@@H](O)[C@@H]1O | Mycobacterium smegmatis ribosome wild type | translation, cell-free luciferase synthesis | – | – | – | IC50 | 730 ± 190 ng/mL
C=CCn1nnc2c(NCc3ccc(C)s3)nc(N[C@H](CC)CO)nc21 | Cav2.1 calcium channel | tail current integral, whole-cell patch clamp | HEK293 transfected with Cav2.1 | – | – | EC50 | 10.3 µM

For quick reference, copied from above:
SMILES | target | assay | system | setting | how to read | quantity | value
CC(C)C[C@@H]1NC(=O)[C@H](Cc2c[nH]c3ccccc23)NC(=O)[C@H](CCCNC(=N)N)NC(=O)[C@H](CCCCN)NC(=O)[C@@H]2CCCN2C(=O)[C@H](Cc2ccc(O)cc2)NC(=O)[C@H](CCCNC(=N)N)NC(=O)[C@H](CC(C)C)NC(=O)[C@H](Cc2ccc(O)cc2)NC(=O)[C@H](CCCNC(=N)N)NC1=O | delta-opioid receptor | DADLE-mediated adenylyl cyclase inhibition | NG108-15 membranes | concentration not given, with: forskolin plus DADLE | – | inhibition of adenylyl cyclase | no effect
COC[C@@H](NC(C)=O)C(=O)NCc1ccc(OCc2cccc(OC(F)(F)F)c2)cc1 | voltage-gated sodium channel | whole-cell patch clamp | rat embryonic cortical neurons | 10 µM, at -50 mV | – | fraction of inactivated channels | 0.92 ± 0.09
